Measurements gathered from unrelated publications.
Several values in a cell are separate wells, animals, samples, runs or records.
Target: Tyrosine-protein kinase receptor TYRO3 (TYRO3, Homo sapiens, UniProt Q06418)
Sequence (Q06418 41-890, as in one of the studies): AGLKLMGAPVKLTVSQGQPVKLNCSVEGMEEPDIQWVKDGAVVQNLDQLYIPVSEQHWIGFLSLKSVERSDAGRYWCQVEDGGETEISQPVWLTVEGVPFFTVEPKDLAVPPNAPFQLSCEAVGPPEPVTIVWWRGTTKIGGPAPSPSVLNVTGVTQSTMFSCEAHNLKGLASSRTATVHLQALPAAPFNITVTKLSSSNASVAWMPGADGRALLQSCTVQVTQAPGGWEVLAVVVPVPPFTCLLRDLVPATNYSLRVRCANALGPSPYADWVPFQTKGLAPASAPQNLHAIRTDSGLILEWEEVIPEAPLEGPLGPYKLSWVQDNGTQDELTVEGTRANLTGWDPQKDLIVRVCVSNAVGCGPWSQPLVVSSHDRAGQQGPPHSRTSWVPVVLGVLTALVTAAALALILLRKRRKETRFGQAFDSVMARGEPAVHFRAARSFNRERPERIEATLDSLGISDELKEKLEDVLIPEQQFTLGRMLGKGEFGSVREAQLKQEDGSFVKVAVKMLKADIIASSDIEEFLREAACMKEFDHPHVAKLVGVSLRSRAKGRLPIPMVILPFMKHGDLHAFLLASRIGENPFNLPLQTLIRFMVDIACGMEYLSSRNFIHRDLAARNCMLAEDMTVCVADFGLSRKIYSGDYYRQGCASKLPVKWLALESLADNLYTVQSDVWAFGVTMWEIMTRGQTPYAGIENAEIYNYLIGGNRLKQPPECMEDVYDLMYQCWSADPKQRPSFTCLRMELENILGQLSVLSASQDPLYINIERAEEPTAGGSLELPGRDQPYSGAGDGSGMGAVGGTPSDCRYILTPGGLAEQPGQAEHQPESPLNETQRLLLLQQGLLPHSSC

`O=C(O)CCC(=O)c1cccc(NS(=O)(=O)c2c[nH]c3ncccc23)c1` has a remaining activity of 118% (kinase activity, radiometric; 10 µM).
For `Nc1ncc(-c2cc(-c3cnn(CC(F)(F)F)c3)ncc2F)nc1C(=O)NC1CNCC(F)C1` (stereo not shown), the remaining activity was 90.2% (enzyme activity; 1 µM; reference: DMSO control).
`C=CC(=O)Nc1cccc(-c2cnc3[nH]cc(C(=O)NC(C)(C)C)c3n2)c1` has an inhibition of 8% (enzyme activity, inhibitor; 0.1 µM).
With `NC(=O)C[C@H]1CCc2sc3ncnc(O[C@H]4CC[C@H](N5CCOCC5)CC4)c3c21` the inhibition was 3% (enzyme activity, inhibitor; 10 µM).
`COc1cc(Nc2nc(C)cc(-c3cnn4nc(OC)ccc34)n2)cc(C(F)(F)F)c1` has a remaining binding of 76% (binding, competition with immobilised ligand; 1 µM).
The inhibition of `Cc1cccc(O[C@H]2CCC[C@@H](C(C)CNCc3ccncc3)C2)c1` (relative stereo) is reported as -6% (cell-free assay; 10 µM).
`CCN1CCN(Cc2ccc(C(=O)Nc3ccc(C)c(NCc4cnc5[nH]ccc5c4OC)c3)cc2C(F)(F)F)CC1` gave a remaining binding of 66% (binding, competition with immobilised ligand; 1 µM).
`Cc1cnc2nc1Nc1cccc(c1)COC/C=C/COCc1cc(ccc1OCCN1CCOCC1)N2` gave a remaining binding of 68% (binding, competition with immobilised ligand; 0.1 µM).
For `C=CC(=O)N1CCc2ccc(-n3c(=O)ccc4cnc5ccc(-c6cnn(C)c6)cc5c43)cc21`, the remaining binding was 96% (KINOMEscan; 1 µM; reference: DMSO control).
The inhibition of `C[C@H]1CN(C(=O)c2cn(-c3ccnc(N)n3)c3cc(C#CC4(O)CCCCC4)ccc23)CCN1` is reported as -2% (enzyme activity, inhibitor, FRET; 1 µM).
For `O=C(Cc1ccc(OCc2ccccc2)cc1)NC1(C(=O)O)CCN(C(=O)c2ccc(-c3cccc(Cl)c3)cc2)CC1`, “activity vs control” read 176% (enzyme activity, inhibitor; 10 µM).
`CNC(=O)C[C@H](Cc1ccc(C#N)cc1)NC(=O)c1cc(-c2ccc(CN[C@H](C)c3ccc(C)cc3)o2)ccc1Cl` — result for “activity vs control”: 96% (enzyme activity, inhibitor; 1 µM).
For `COCC12C(=O)NC3C4(C(OC)CC1O)C1CC5(O)C(OC)C(O)C(OC(C)=O)(C1C5OC(=O)c1ccccc1)C3(O)C(OC)C24` (stereo not shown), the remaining activity was 110% and 112% (kinase activity, inhibitor, ProQinase kinase profiling; 25 µM; reference: control).
With `O=C=[N][Ru-4]123([n]4c5ccc(O)cc5c5c6c(c7cc(F)c[n+]1c7c54)C(=O)NC6=O)[S+]1CC[S+]2CC[S+]3CC1` (stereo not shown) the remaining activity was 61% (enzyme activity; 100 nM, human enzyme, with: 10 µM ATP; reference: untreated).
With `C=CC(=O)N1CCCC(n2c(=O)c3ncccc3n(Cc3ccc(Oc4ccccc4)cc3)c2=O)C1` (stereo not shown) the remaining binding was 95% (cell-free assay, competition with immobilised ligand; 1 µM).
The remaining binding of `CNC(=O)C1CCN(c2cc(C)c(F)cc2NC(=O)c2ccc(-c3cc(O)ccc3C)c(C)c2)CC1` is reported as 16% (binding, competition with immobilised ligand; 1 µM).
